Published values of several laboratories.
Each numbered part is a random draw from the data of one study; scales do not carry over between parts.

Study 1
Target: Interferon regulatory factor 5, full length, phosphomimetic (IRF5, Homo sapiens, UniProt Q13568-2, residues 1-514, K96S/S451D/S453D/S456D/S462D)
Method: protein-binding microarray
Form: double-stranded DNA, one strand shown
Sample: in vitro
Concentration: 250 nM
Setting: 60-bp whole probe
With: salmon DNA 0.4 mg/ml
Reference: random background probes
Reading: higher = stronger binding
Oligonucleotide	log fluorescence [z-score]
GCCTAGCACGACGGTTTCGACTATGGGGACGTGCTAGTCTTGATTCGCTTGACGCTGCTG	5.97
GCCTAGCACCTAGTTCTGCTTTGCCTTCAGTGCTAGGTCTTGATTCGCTTGACGCTGCTG	0.336
GCCTAGCACATAGGTTTCCTACTGCTTTAGTGCTAGGTCTTGATTCGCTTGACGCTGCTG	0.474
GCCTAGCACGTCGGACTGGACTATCGGGACGTGCTAGTCTTGATTCGCTTGACGCTGCTG	0.692

Study 2
Target: Prothrombin, mature alpha-thrombin (F2, Homo sapiens, UniProt P00734)
Method: aptamer microarray, sandwich
Form: DNA with 2'F-ANA
Sample: in vitro
Concentration: 200 nM
Setting: whole 15-mer aptamer, many near background
With: Cy3 exosite-II aptamer, 400 nM
Reading: higher = stronger binding
Oligonucleotide	mean fluorescence intensity
GGTTGGTGTGGTTGG (2'F-ANA at 1 2 4 5 6 7 11 14 15)	49.4 a.u.
GGTTGGTGTGGTTGG (2'F-ANA at 1 3 4 5 9 10)	46.1 a.u.
GGTTGGTGTGGTTGG (2'F-ANA at 4 5 6 7 10 12 14 15)	47.5 a.u.

Study 3
Target: Histone acetyltransferase KAT6A, winged helix 1, GST fusion (KAT6A, Homo sapiens, UniProt Q92794, residues 1-85)
Method: protein binding microarray
Form: double-stranded DNA, one strand shown
Sample: in vitro
Concentration: not given
Setting: 8-mer, flanks averaged, mean of 2 arrays, mostly near background
Reference: not given
Reading: higher = stronger binding
Target sequence (chain): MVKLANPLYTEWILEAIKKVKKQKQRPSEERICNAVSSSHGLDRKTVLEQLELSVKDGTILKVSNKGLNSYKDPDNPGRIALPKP
Oligonucleotide	E-score
TAGTATGA	-0.0897
GGGATCGA	-0.0966
CTTTTACA	-0.0596
ACAAAGGG	-0.156
AAGGCTCT	-0.0542

Further values, each from its own experiment
Molecule	target	test	test system	setting	scale	endpoint	result
PhoQ, residues 284 288 289 292 302 303 AMDMFI	PhoP, residues 12 14 15 18 19 QQAYL (Escherichia coli, UniProt P23836)	Sort-seq, item: YFP reporter	E. coli	PhoQ-PhoP variant library, with: 10 µM Mg2+	reference: high Mg2+ state, higher = stronger signaling	fold induction	2.35

Repeated from above (study 2):
Oligonucleotide	mean fluorescence intensity
GGTTGGTGTGGTTGG (2'F-ANA at 1 3 4 5 9 10)	46.1 a.u.
GGTTGGTGTGGTTGG (2'F-ANA at 1 2 4 5 6 7 11 14 15)	49.4 a.u.
